Experimental data collected from several papers.
Each numbered part is a random draw from the data of one study; scales do not carry over between parts.

Series 1
Target: human cyclin B1
Read-out: peptide binding
Method: yeast competitive growth sequencing
Molecule type: peptide
Organism: Saccharomyces cerevisiae
Strain: cyclin B1-Cln2 fusion
Tested at: concentration not given
Setting: peptide tiling library
Reading: direction not given
`GTPKRCLDLSNLSSGE`: “binding enrichment score” -0.518.
`HPESPPRKRLKSKGSD`: “binding enrichment score” 0.634.
`MNQELLSVGSKRRRTG` — result for “binding enrichment score”: 1.18.
Under “binding enrichment score”, `SFLIEYEFLIPPSLKP` is recorded as 0.2.
Under “binding enrichment score”, `RKLDLEGIGR` is recorded as 0.157.
`GFGFLLFICKLTF` — result for “binding enrichment score”: 0.258.
`NLEPNAEFDKRTEFIT`: “binding enrichment score” -0.101.
`SMTDFYHSKRRLIFSK` — result for “binding enrichment score”: -0.515.

Series 2
Target: Sal-like protein 4, full length isoform A (SALL4, Homo sapiens, UniProt Q9UJQ4, residues 1-1053)
Chain of UniProt Q9UJQ4 (whole entry, looked up): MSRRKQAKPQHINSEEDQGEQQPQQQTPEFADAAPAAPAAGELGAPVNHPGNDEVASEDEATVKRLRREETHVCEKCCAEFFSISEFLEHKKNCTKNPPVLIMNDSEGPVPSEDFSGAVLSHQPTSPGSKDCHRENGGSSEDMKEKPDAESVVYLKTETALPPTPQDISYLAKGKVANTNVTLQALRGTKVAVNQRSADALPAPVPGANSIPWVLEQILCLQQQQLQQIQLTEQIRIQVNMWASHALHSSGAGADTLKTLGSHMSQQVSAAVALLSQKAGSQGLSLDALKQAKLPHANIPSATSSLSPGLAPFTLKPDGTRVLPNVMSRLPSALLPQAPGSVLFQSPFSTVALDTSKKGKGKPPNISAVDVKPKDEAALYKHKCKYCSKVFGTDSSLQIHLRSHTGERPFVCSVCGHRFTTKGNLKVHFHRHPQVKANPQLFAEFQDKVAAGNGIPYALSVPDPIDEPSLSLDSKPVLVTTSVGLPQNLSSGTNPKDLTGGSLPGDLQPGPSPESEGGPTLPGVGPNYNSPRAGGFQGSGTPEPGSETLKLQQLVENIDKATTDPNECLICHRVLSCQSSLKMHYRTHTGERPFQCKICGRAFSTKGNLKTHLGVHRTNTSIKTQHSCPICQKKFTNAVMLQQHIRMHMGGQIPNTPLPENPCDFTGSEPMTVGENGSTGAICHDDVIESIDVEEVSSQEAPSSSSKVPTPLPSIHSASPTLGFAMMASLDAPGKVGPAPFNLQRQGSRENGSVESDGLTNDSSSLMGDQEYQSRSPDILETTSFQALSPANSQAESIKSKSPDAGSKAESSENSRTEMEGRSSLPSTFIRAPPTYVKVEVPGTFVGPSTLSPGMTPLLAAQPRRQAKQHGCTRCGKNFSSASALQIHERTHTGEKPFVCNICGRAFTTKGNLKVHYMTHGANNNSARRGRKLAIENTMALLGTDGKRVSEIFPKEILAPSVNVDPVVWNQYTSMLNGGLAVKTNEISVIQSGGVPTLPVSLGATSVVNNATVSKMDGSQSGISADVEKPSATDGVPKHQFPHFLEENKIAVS
Method: universal PBM
Molecule type: double-stranded DNA, one strand shown
Sample: in vitro
Tested at: 600 nM
Setting: 8-mer, flanks averaged, mean of replicates
Reading: higher = stronger binding
`GTACCATA` gave an E-score of 0.124.
The E-score of `GTGATGGA` is reported as 0.0159.
`CGCAGTAG` has an E-score of -0.106.
`TCCGTCGA` gave an E-score of -0.0203.
`AATCGAGT` gave an E-score of 0.0232.
With `CGAGGGCC` the E-score was -0.335.
`GACTCGTA` has an E-score of -0.0374.
`AGAGTGCA` has an E-score of 0.00713.
`AATGTTCT` gave an E-score of 0.139.
The E-score of `CAGTCTCC` is reported as -0.198.
With `GGATCTCA` the E-score was -0.0584.
For `GCTCGTCA`, the E-score was -0.167.

Series 3
Target: RNA binding protein fox-1 homolog 2, RRM domain, GST-SBP tag (RBFOX2, Homo sapiens, UniProt O43251-10, residues 100-194)
Method: RNA Bind-n-Seq
Molecule type: RNA
Sample: in vitro
Tested at: 365 nM
Setting: natural RNA segment, single round, ends assumed
Baseline: no-protein control
Reading: higher = stronger binding
Construct (chain): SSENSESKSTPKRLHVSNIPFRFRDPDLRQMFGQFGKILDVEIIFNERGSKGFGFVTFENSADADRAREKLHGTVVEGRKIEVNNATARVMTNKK
For `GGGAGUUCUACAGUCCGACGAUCCUUCCUGUCCCCCGACCCUAACAGGUGCCUUAAAAGGCCCUCUCCCACCCAAGGUGGGGGGGCCAGGGGGGCCUCACUUUCCGGCCCUAGACUUGGGUGCGGGAGAGUGGUGGAAUUCUCGGGUGCCAA`, “RBNS enrichment (R)” read 0.253.
`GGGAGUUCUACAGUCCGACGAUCGGCUAUCCGAGACGCUGUCAGCCAUUUUGCUCUGUUCCUGGUAGUGUGCAGACCUCGGGGUUGAGAACGGGGUGAAGAUGAAUGUCCUUAGUGUUGGUGCAGCACCAGCCUGGAAUUCUCGGGUGCCAA` — result for “RBNS enrichment (R)”: 0.9.
`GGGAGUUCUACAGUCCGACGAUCUAAAUGAUGACUACUGUUUGGGGUUUUGAGACCCCGCUGUGUAAAUGUGUGUCUUUCACAGGAGUGACUGCUGCGUGUAAGAGAGCUGUCAAUCAAACUUAUGGUCAUUUUGGAAUUCUCGGGUGCCAA` — result for “RBNS enrichment (R)”: 3.34.
For `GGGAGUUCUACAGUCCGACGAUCAAUUAUCACCAGCUUUUUUUCAUUCUUAACUCUUUAAAGGAUUCAAACGCAACUCAAAUCUGUGCUGGACUUUAAAAAAACAAUUCAGGACCAAAUUUUUUCUCAGUGUGUGGAAUUCUCGGGUGCCAA`, “RBNS enrichment (R)” read 0.819.
Under “RBNS enrichment (R)”, `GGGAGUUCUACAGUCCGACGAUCUUUUUUCAGCUAAUUUGUUAUUUGACCAGAAGUUGUCUGGGGAGACUGAGUUCUUUGAGUUGCAUAUAAAUGGGGGUAUAUUAUUUGCCAAAGGUAAAAUUGAGUUUAUUUGGAAUUCUCGGGUGCCAA` is recorded as 1.91.
`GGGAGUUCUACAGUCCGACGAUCGCAUUAAAUGUGUUCUCAUGUCGCAGUUUGGCUCAUAGUGAUAAUAAUAGCUGGUAUGUAUCCAGCUCUUGCUAGGUGCUAGGUACUCAAAGUACAUGGCCUGAGUUCUCUGGAAUUCUCGGGUGCCAA`: “RBNS enrichment (R)” 0.27.
For `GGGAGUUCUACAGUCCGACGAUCAAGCCCCCAGUACCGGUCAGUUGAUUCUGUGGGCUGUAAACUGUGAAGUAUGGGUUCUCUCAGAGGAAAGGUUAUGAAAUUCUGUUGUGUGCAUAGUAAGACUGCCUGGCUGGAAUUCUCGGGUGCCAA`, “RBNS enrichment (R)” read 1.06.
`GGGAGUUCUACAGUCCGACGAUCGCUCCCUCCUGACCACGGAGGCUCCACUGGUGGUGCCACAUGGGAAACAUCUACUUCUCAGUCUAAGGCACACUAAGUACUAGUAGCAAGCCUGUGAGCCUAGGAGACUGUGGAAUUCUCGGGUGCCAA` — result for “RBNS enrichment (R)”: 0.435.
For `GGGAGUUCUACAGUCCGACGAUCUGAAAAACGAUAAUAGCCUUACACUGAGUACAAAUAAUACUUUAAGAGCAUGUGAAGAUGUGAUCAUUUGUGAUGUUACUUGUAAAAAAAAGUAUAUAUACAUAUCUUUUUGGAAUUCUCGGGUGCCAA`, “RBNS enrichment (R)” read 1.6.
`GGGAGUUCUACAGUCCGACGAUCCUAGAACAAGGUCGCUUCUCUUUUCCUCUUCUCUCCCAACCUGUUAACCUAGUGCUAGAUAGUCAGCUGCUGUUGCAGGUAGAAAAGCUCACCAAUGCCACAUUUGUUCAUGGAAUUCUCGGGUGCCAA`: “RBNS enrichment (R)” 0.482.
`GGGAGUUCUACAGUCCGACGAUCUAAGGAGUUUCUCAGACAAAUUGAAAAUUCUAUAUGUUUUGAGGAAAUAAGGGGAAGCUUUAGAGUUUAAUAGGAUAUUCAAAACUAUAAAAGAAUAUCAUCUUAAAAAAUGGAAUUCUCGGGUGCCAA`: “RBNS enrichment (R)” 0.752.
`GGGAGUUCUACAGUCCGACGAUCAAACAAGCUGCUCUUUAUAAUAUGCACCUUUUAAAAAAUUAGAAUAUUUUACUGGGAAGACGUGUAACUCUUUGGGUUAUUACUGUCUUUACUUCUAAAGAAGUUAGCUUUGGAAUUCUCGGGUGCCAA`: “RBNS enrichment (R)” 0.448.

Single results of other studies
The fold induction of `PhoQ, residues 284 288 289 292 302 303 TSTLRA` is reported as 16.3 (PhoP, residues 12 14 15 18 19 TQAIL (Escherichia coli, UniProt P23836); Sort-seq, refers to: YFP reporter; E. coli; PhoQ-PhoP variant library, added: 10 µM Mg2+; baseline: high Mg2+ state, higher = stronger signaling).

Some of these lines once more (series 1):
`NLEPNAEFDKRTEFIT`: “binding enrichment score” -0.101.
`GFGFLLFICKLTF` — result for “binding enrichment score”: 0.258.
`GTPKRCLDLSNLSSGE`: “binding enrichment score” -0.518.
`HPESPPRKRLKSKGSD`: “binding enrichment score” 0.634.
Under “binding enrichment score”, `SFLIEYEFLIPPSLKP` is recorded as 0.2.
